# Experimental data pooled from the literature.
# Lines come from different studies, so protocols differ.
# Target: Serine/threonine-protein kinase ULK2 (ULK2, Homo sapiens, UniProt Q8IYT8)
Structure (SMILES),assay,system,setting,scale,endpoint,value
Cc1nc2c(F)cc(-c3nc(Nc4ccc(CNC(=O)CCCCCCC(=O)NO)cc4)ncc3F)cc2n1C(C)C,"enzyme activity, inhibitor",,1 µM,,inhibition,20%
CCn1cc(C(=O)O)c(=O)c2c(N)c(F)c(NC3CCCCC3)cc21,kinase activity,,"0.1 µM, together with: ATP at Km",,inhibition,-5.5%
Cc1ccc(C(=O)Nc2ccc(CN3CCN(C)CC3)c(C(F)(F)F)c2)cc1C#Cc1cnc2cccnn12,"target engagement, NanoBRET",human cells,,,Hill slope,0.0381
CNC1C[S+]2CC[S+]3CC[S+](C1)[Ru-4]321([N]=C=S)[n]2c3ccc(OC)cc3c3c4c(c5cc(F)c[n+]1c5c32)C(=O)NC4=O (stereo not drawn),KinomeScan,,0.1 µM,reference: untreated,remaining binding,96%
COc1c(Cl)cccc1Nc1c(-c2ccncc2C#C[C@@]2(C)CCCN2C(=O)/C=C/CN(C)C)[nH]c2c1C(=O)NCC2,"binding, competition with immobilised ligand",,3 µM,,remaining binding,88%
NC(=O)[C@@H](O)C[C@H]1CCc2sc3ncnc(O[C@H]4CC[C@H](N5CCOCC5)CC4)c3c21,"enzyme activity, inhibitor",,10 µM,,inhibition,1%
CN1CCN(Cc2ccc(NC(=O)c3cccc(C#Cc4cnc(N)c5ncccc45)c3)cc2C(F)(F)F)CC1,"cell-free assay, competition with immobilised ligand",,50 nM,,remaining binding,80%
CCN1CCN(Cc2ccc(C(=O)Nc3ccc(C)c(NCc4cnc5[nH]ccc5c4OC)c3)cc2C(F)(F)F)CC1,"binding, competition with immobilised ligand",,1 µM,,remaining binding,81%
CC(C)C(Nc1nccnc1-c1ccccc1)C(=O)NCC1CC1 (stereo not drawn),"cell-free assay, competition with immobilised ligand",,10 µM,,remaining binding,0%
C=C1CCCCCCCCCC(CO)C1=O (stereo not drawn),"cell-free assay, competition with immobilised ligand",,10 µM,,remaining binding,58%
Nc1ncc(-c2cc(-c3cnn(CC(F)(F)F)c3)ncc2F)nc1C(=O)NC1CNCC(F)C1 (stereo not drawn),enzyme activity,,1 µM,reference: DMSO control,remaining activity,80.5%
COc1cc(Nc2nccc(-c3cnn4nc(OC)ccc34)n2)cc(C(F)(F)F)c1,"binding, competition with immobilised ligand",,1 µM,,remaining binding,100%
CCN1CCN(Cc2ccc(NC(=O)c3ccc(C)c(NC(=O)c4cncc(-c5cnn(C)c5)c4)c3)cc2C(F)(F)F)CC1,"binding, competition with immobilised ligand",,1 µM,,remaining binding,100%
Nc1ncc2c(n1)-c1c([nH]c3ccc(C4=CCOCC4)cc13)CCC2,"binding, competition with immobilised ligand",,1 µM,,remaining binding,70%
COc1ccc(NC(=O)Nc2ccc3c(c2)C(=O)N(C(C)CO)CC(C)C(CN(C)Cc2ccc4c(c2)OCO4)O3)cc1 (stereo not drawn),"binding, competition with immobilised ligand",,10 µM,,remaining binding,100%
CNC(=O)C1CCN(c2cc(C)c(F)cc2NC(=O)c2ccc(-c3cc(O)ccc3C)c(C)c2)CC1,"binding, competition with immobilised ligand",,1 µM,,remaining binding,96%
Cc1cnc2nc1Nc1cccc(c1)COC/C=C/COCc1cc(ccc1OCCN1CCOCC1)N2,"binding, competition with immobilised ligand",,0.1 µM,,remaining binding,100%
CC(C)=CC1OC(C)(C)C2C=C3C(=O)C(Cl)=CC(O)C3C3C(O)C4OC4C(=O)C132 (stereo not drawn),"cell-free assay, competition with immobilised ligand",,10 µM,,remaining binding,76%

# For quick reference, copied from above:
Structure (SMILES),assay,system,setting,scale,endpoint,value
C=C1CCCCCCCCCC(CO)C1=O (stereo not drawn),"cell-free assay, competition with immobilised ligand",,10 µM,,remaining binding,58%
